Measurements of several laboratories.
Parts stem from different laboratories: compare values within a part only. Values joined by “and” are separate records of one study, mostly repeats; a detail may differ. Changes are numbered by the printed parent chain.

Sample 1 — method: RNAcompete; molecule type: RNA; sample: in vitro; tested at: 20 nM; setting: 7-mer, probes averaged, single round; relative to: mean of 7-mers; reading: higher = stronger binding
Target: PABPC1L2, full length, GST fusion (mouse, UniProt A0ABA7IW68)
Target sequence (chain): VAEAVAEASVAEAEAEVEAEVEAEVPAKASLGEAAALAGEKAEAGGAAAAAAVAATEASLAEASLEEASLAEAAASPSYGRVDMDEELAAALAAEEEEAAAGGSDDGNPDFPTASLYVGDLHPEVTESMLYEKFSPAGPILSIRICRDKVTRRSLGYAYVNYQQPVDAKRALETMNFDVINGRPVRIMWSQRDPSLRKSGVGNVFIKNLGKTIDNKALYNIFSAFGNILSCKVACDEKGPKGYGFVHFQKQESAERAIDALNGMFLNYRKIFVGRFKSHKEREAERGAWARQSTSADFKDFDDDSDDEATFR
| Strand | 7-mer Z-score |
| --- | --- |
| AAAGCUU | 0.785 |
| GUUCUAA | -0.146 |
| CCUCUGG | -0.421 |
| CGCUAGG | -0.197 |
| AUACACA | 0.0932 |

Sample 2 — target: CCNB2, cyclin fold, Cln2 fusion (human); method: yeast growth competition, sequencing; sample: yeast; setting: weak parent motif; relative to: not given; reading: higher = stronger binding
Parent: CDC6 docking peptide (human); TLKGRRLVFDNQL; partner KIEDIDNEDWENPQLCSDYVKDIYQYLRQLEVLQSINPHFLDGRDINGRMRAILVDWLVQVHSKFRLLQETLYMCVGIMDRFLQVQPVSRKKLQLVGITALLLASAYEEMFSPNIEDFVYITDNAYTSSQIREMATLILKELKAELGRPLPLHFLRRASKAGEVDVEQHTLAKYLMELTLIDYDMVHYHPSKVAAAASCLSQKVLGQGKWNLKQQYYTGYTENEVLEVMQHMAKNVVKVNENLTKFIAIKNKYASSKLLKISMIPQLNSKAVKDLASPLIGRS
| Substitution | normalised enrichment score |
| --- | --- |
| TLKGRRLVFDEQL [N11E] | 0.0637 |
| TLKGRRLVFTNQL [D10T] | 0.0171 |
| TLEGRRLVFDNQL [K3E] | -0.0512 |
| TLKNRRLVFDNQL [G4N] | 0.0145 |
| TLKGRRLVFDNQA [L13A] | 0.308 |
| TLKGRRQVFDNQL [L7Q] | 0.395 |
| TLKGRRLVFDLQL [N11L] | 0.066 |
| TLKWRRLVFDNQL [G4W] | -0.162 |

Sample 3 — method: RNA Bind-n-Seq; molecule type: RNA; sample: in vitro; tested at: 365 nM; relative to: no-protein control; reading: higher = stronger binding
Target: RNA binding protein fox-1 homolog 2, RRM domain, GST-SBP tag (RBFOX2, Homo sapiens, UniProt O43251-10, residues 100-194)
Setting: natural RNA segment, single round, ends assumed
All sequences stand within: GGGAGUUCUACAGUCCGACGAUC … UGGAAUUCUCGGGUGCCAA
Construct (chain): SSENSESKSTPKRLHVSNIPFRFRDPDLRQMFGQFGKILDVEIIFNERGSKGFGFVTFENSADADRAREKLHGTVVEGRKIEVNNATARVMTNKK
| Strand | RBNS enrichment (R) |
| --- | --- |
| AGAACGUGGUUUUGCUUUGCAUUUUGUAGUUCUUCCCGUCAGUGCUGUGUGUAGUCCUGCUUCUUCCAGUCUGCAGUAUUCACUAGAGGCGCCCUUUGCAUGUUGCACUC | 22.3 |
| AAUGAGGACUGACCAUAGUUCUUGUGACUGAGUGUGCUGGCACUGGUGAGCCCAGCCAGCCUGUGCUGAACAGAGGCUUUUCAGGAAGUGCACCACACACACACACACAC | 0.254 |
| CAUGUCAUAACUAUCUAUACAGUAUAUAUUAAAAGAAAGCUUGUACUGUAUCUUAUUUGAUGAUAUUUAUUUUCUCUGCCAAGCUGUAUAGUAAAAGGAAAAUAAGUCAC | 0.52 |
| GAGUUUCUUCAUUUCUGUCUCACAAUUAUCAAAAGCUAGAAUUAGCUUCUGCCCUAUGUUUCUGUACUUCUAUUUGAACUGGAUAACAGAGAGACAAUCUAAACAUUCUC | 0.48 |
| AUCUUCUAAGGAGUUUUAGAUUUAGAUAUUUCUCUCCGCUUUAAAAAAAAAUAAAAUUUGAGUGGAAAUAAUGUUAUUAAACCAUUCUUCUAAUGCUUCACUUUUGAUGA | 0.661 |
| CUGCUCUGGCCAUGGCUGUGAAGGGCCCAGCCAGCUCCCUGUUUUGAUGUUCUGUGCAACAGCUCCGGGGUCUUGUGACUGGAGAUCCUCAACAGGCCCUGGAGCCAGGA | 0.36 |
| CACAAAAACAUGAGUGGGGUGAGCCCCAAGUACACAGGUCACGGUACAUCAACACAGUGGUGAUGCUGGAGAACGUUACCCAAGGUCUCAUCAGUGUCUCUGCUGUACUG | 0.424 |
| UCUCCCUGCUUUGCUGUAUGGUGACCCCUAAUCCGCUUCUCUGGGCUCAGAUCUGUCCAAGGGCGGAGGCAGGUGGUAUUGAAAAGGAAACGAAUCCUUGAGAGGAGCAC | 0.584 |
| GCUCUGUGCCUUUCCUGGGGAGGGAAGGGGAUGAACUGGUAGAUUUGAAAGCAGUAUGGCUUCUUCUGUGGGUCUCCCUCUUACUAGACAAGGUGAAAUGAUAAUUCGUG | 1.28 |
| UGUUGAAGGGCUUCAGCCACAUUCAAAAUAAGUAGGUGGUUUAUCUUUGACAUCUUUUAAAGAGUCUGGAUAAAUCUGACUCGUUGCUCAAUAGGGUUUAUUUGGCAGUG | 0.361 |
| AGUGGGGUUGUGGUUGGUUGGUAUAGAAUGGUGGGAAUUCAAAUUUUUCUAAACUCAUGGUAAGUAUAUUGUAAAAUACAUAUGUACUAAGAAUUUUCAAAAUUGGUUUG | 33.2 |
| UCACCCCACCCUCGACUCUGGCACCAGUAUGGUUCUAUGCAUGUUGCAGCUCUCUGGGCUGUGACUCUGUUAAGAAGGUUUGCCAGCUUUCUGGCCCUUCCCCGCUCCUA | 0.825 |

Single results of other studies
| Substance | target | assay | test system | setting | scale | endpoint | value |
| --- | --- | --- | --- | --- | --- | --- | --- |
| PhoQ, residues 284 288 289 292 302 303 SSCCRF | PhoP, residues 12 14 15 18 19 LWHSL (Escherichia coli, UniProt P23836) | Sort-seq, measured: YFP reporter | E. coli | PhoQ-PhoP variant library, together with: 10 µM Mg2+ | relative to: high Mg2+ state, higher = stronger signaling | fold induction | 11.5 and 18.7 |

Excerpt of the above (sample 1):
| Strand | 7-mer Z-score |
| --- | --- |
| AAAGCUU | 0.785 |
| GUUCUAA | -0.146 |
| CCUCUGG | -0.421 |
| CGCUAGG | -0.197 |
